Published values pooled from the literature.
Lines come from different studies, so protocols differ. Numbers after ± are the reported error.

Compound | test | test system | conditions | tissue uptake
CC(C)[C@H](NC(=O)[C@@H]1CCCN1C(=O)[C@H](CCCNC(=N)N)NC(=O)[C@H](CS)NC(=O)[C@H](Cc1c[nH]c2ccccc12)NC(=O)[C@H](CCCNC(=N)N)NC(=O)[C@@H](Cc1ccccc1)NC(=O)[C@H](Cc1c[nH]cn1)NC(=O)[C@H](CCC(=O)O)NC(=O)[C@H](CS)NC(=O)[C@H](CS)NC(=O)[C@@H]1CC(=O)N[C@@H](CCCNC(=N)N)C(=O)NCC(=O)N[C@@H](CC(=O)O)C(=O)N[C@H](Cc2ccc(O)cc2)C(=O)N1)C(N)=O [technetium-99m labelled] | – | C57 mouse, female, B16/F1 melanoma, liver | intravenous, 0.037 MBq, 24 h | 0.65 ± 0.1 %ID/g
CN(C(=O)Cn1c(=O)oc2ccc(-c3ccc(OCC[18F])cc3)cc21)c1ccccc1 | – | male ddY mouse, femur | intravenous, 1.85 MBq, early phase after injection | ~3.8 %ID/g
CCCC[C@H](NC(=O)CNC(=O)CNC(=O)CN1CCN(CC(=O)O)CCN(CC(=O)O)CC1)C(=O)N[C@H]1CC(=O)NCCCC[C@@H](C(N)=O)NC(=O)[C@H](Cc2c[nH]c3ccccc23)NC(=O)[C@H](CCCNC(=N)N)NC(=O)[C@@H](Cc2ccccc2)NC(=O)[C@H](Cc2c[nH]cn2)NC1=O [copper-64 labelled] | – | female C57 mouse, B16/F1 melanoma, lung | intravenous, 0.037 MBq, 24 h | 0.37 ± 0.11 %ID/g
CCCC[C@H](NC(=O)CNC(=O)CNC(=O)CN1CCN(CC(=O)O)CCN(CC(=O)O)CCN(CC(=O)O)CC1)C(=O)N[C@H]1CC(=O)NCCCC[C@@H](C(N)=O)NC(=O)[C@H](Cc2c[nH]c3ccccc23)NC(=O)[C@H](CCCNC(=N)N)NC(=O)[C@@H](Cc2ccccc2)NC(=O)[C@H](Cc2c[nH]cn2)NC1=O [lead-203 labelled] | – | C57 mouse, bone | intravenous, 0.056 MBq, 2 h | 1.15 ± 0.36 %ID/g
CN1C(=O)[C@@H](Cc2ccc(O)c(I)c2)NC(=O)CNC(=O)[C@H](Cc2ccc3ccccc3c2)NC(=O)[C@H](CCCNC(=N)N)NC(=O)[C@H]1CCCNC(=O)c1ccc(CNC(=O)CN2CCN(CC(=O)O)CCN(CC(=O)O)CC2)cc1 [fluorine-18 labelled] | biodistribution | SCID mouse, Daudi lymphoma xenograft, blood | 60 min | 1.98 ± 0.31 %ID/g
COC(=O)c1ccc(-c2cn(Cc3cc(Cl)ccc3O[11CH3])nn2)cc1 | PET/CT | C57BL/6 mouse, muscle | 60 min | 0.66 %ID/cc
CC(C)C[C@H](NC(=O)C[C@H](O)[C@H](CC(C)C)NC(=O)[C@H](Cc1c[nH]cn1)NC(=O)CNC(=O)[C@@H](NC(=O)[C@H](C)NC(=O)[C@H](Cc1c[nH]c2ccccc12)NC(=O)[C@H](CCC(N)=O)NC(=O)[C@@H](Cc1ccccc1)NC(=O)CCNC(=O)CCNC(=O)CN1CCN(CC(=O)O)CCN(CC(=O)O)CCN(CC(=O)O)CC1)C(C)C)C(N)=O [lutetium-177 labelled] | – | mouse PC-3 xenograft, tumour | intravenous, 200 pmol, 4 h, without PA | 8.3 ± 1.7 %ID/g
CCCC[C@H](NC(=O)CN1CCC(NC(=O)CN2CCN(CC(=O)O)CCN(CC(=O)O)CCN(CC(=O)O)CC2)CC1)C(=O)N[C@H]1CC(=O)NCCCC[C@@H](C(N)=O)NC(=O)[C@H](Cc2c[nH]c3ccccc23)NC(=O)[C@H](CCCNC(=N)N)NC(=O)[C@@H](Cc2ccccc2)NC(=O)[C@H](Cc2c[nH]cn2)NC1=O [gallium-68 labelled] | biodistribution | C57BL/6J mouse male tumour-bearing, adrenal glands | 1 h post injection, unblocked | 0.5 ± 0.2 %ID/g
CC(C)[C@H](NC(=O)[C@@H]1CCCN1C(=O)[C@H](CCCNC(=N)N)NC(=O)[C@H](CS)NC(=O)[C@H](Cc1c[nH]c2ccccc12)NC(=O)[C@H](CCCNC(=N)N)NC(=O)[C@@H](Cc1ccccc1)NC(=O)[C@H](Cc1c[nH]cn1)NC(=O)[C@H](CCC(=O)O)NC(=O)[C@H](CS)NC(=O)[C@H](CS)NC(=O)COCCOCCNC(=O)[C@@H]1CC(=O)N[C@@H](CCCNC(=N)N)C(=O)NCC(=O)N[C@@H](CC(=O)O)C(=O)N[C@H](Cc2ccc(O)cc2)C(=O)N1)C(N)=O [technetium-99m labelled] | – | nude mouse, M21 melanoma xenograft, spleen | intravenous, 2 h | 0.44 ± 0.27 %ID/g
O=C([O-])CN1CCN(CC(=O)[O-])CCN(CC(=O)NCCc2ccc3c(c2)C2C=CCC2C(c2cc4c(cc2Br)OCO4)N3)CCN(CC(=O)[O-])CC1.[111In+3] (stereo not drawn) | – | mouse, Hec50 endometrial tumour, heart | 0.5 h post injection | 5.87 ± 0.55 %ID/g
O=C(O)CCC(NP(=O)(O)OCCC[C@@H](NC(=O)CC[C@H](NC(=O)CCCCCNC(=O)c1ccc([18F])cc1)C(=O)O)C(=O)O)C(=O)O (stereo partly drawn) | – | mouse, CWR22Rv1 xenograft, muscle | dose not given, 4 h, blocking agent pre-dosed | 0.013 ± 0.002 %ID/g
CN(C)c1ccc(-c2nc3ccc(OCCCCCN4CCN5CCN(CC4)CC(=O)[O][Al]([18F])[O]C(=O)C5)cc3s2)cc1 | – | ICR mouse, liver | intravenous, 30 min | 77.2 ± 7.73 %ID/g
O=C(CCCCC[N+]#[C][99Tc-5]([C]#[N+]CCCCCC(=O)N[C@H]1C(O)O[C@H](CO)[C@@H](O)[C@@H]1O)([C]#[N+]CCCCCC(=O)N[C@H]1C(O)O[C@H](CO)[C@@H](O)[C@@H]1O)([C]#[N+]CCCCCC(=O)N[C@H]1C(O)O[C@H](CO)[C@@H](O)[C@@H]1O)([C]#[N+]CCCCCC(=O)N[C@H]1C(O)O[C@H](CO)[C@@H](O)[C@@H]1O)[C]#[N+]CCCCCC(=O)N[C@H]1C(O)O[C@H](CO)[C@@H](O)[C@@H]1O)N[C@H]1C(O)O[C@H](CO)[C@@H](O)[C@@H]1O (stereo partly drawn) | – | BALB/c nude mouse, U87 MG xenograft, brain | dose not given | 0.02 %ID/g
CC(C)[C@H](NC(=O)[C@@H]1CCCN1C(=O)[C@H](CCCNC(=N)N)NC(=O)[C@H](CS)NC(=O)[C@H](Cc1c[nH]c2ccccc12)NC(=O)[C@H](CCCNC(=N)N)NC(=O)[C@@H](Cc1ccccc1)NC(=O)[C@H](Cc1c[nH]cn1)NC(=O)[C@H](CCC(=O)O)NC(=O)[C@H](CS)NC(=O)[C@H](CS)NC(=O)CNC(=O)[C@@H]1CC(=O)N[C@@H](CCCNC(=N)N)C(=O)NCC(=O)N[C@@H](CC(=O)O)C(=O)N[C@H](Cc2ccc(O)cc2)C(=O)N1)C(N)=O [technetium-99m labelled] | – | C57 mouse, female, B16/F1 melanoma, stomach | intravenous, 0.037 MBq, 2 h | 3.43 ± 0.69 %ID/g
CCCC[C@H](NC(=O)CNC(=O)CNC(=O)CN1CCN(CC(=O)O)CCN(CC(=O)O)CCN(CC(=O)O)CC1)C(=O)N[C@H]1CC(=O)NCCCC[C@@H](C(N)=O)NC(=O)[C@H](Cc2c[nH]c3ccccc23)NC(=O)[C@H](CCCNC(=N)N)NC(=O)[C@@H](Cc2ccccc2)NC(=O)[C@H](Cc2c[nH]cn2)NC1=O [copper-64 labelled] | – | female C57 mouse, B16/F1 melanoma, lung | intravenous, 0.037 MBq, 2 h | 3.93 ± 0.64 %ID/g

For quick reference, copied from above:
Compound | test | test system | conditions | tissue uptake
O=C([O-])CN1CCN(CC(=O)[O-])CCN(CC(=O)NCCc2ccc3c(c2)C2C=CCC2C(c2cc4c(cc2Br)OCO4)N3)CCN(CC(=O)[O-])CC1.[111In+3] (stereo not drawn) | – | mouse, Hec50 endometrial tumour, heart | 0.5 h post injection | 5.87 ± 0.55 %ID/g
O=C(O)CCC(NP(=O)(O)OCCC[C@@H](NC(=O)CC[C@H](NC(=O)CCCCCNC(=O)c1ccc([18F])cc1)C(=O)O)C(=O)O)C(=O)O (stereo partly drawn) | – | mouse, CWR22Rv1 xenograft, muscle | dose not given, 4 h, blocking agent pre-dosed | 0.013 ± 0.002 %ID/g
